{"data": "Measured values of several laboratories", "note": "Numbered parts are unrelated; each lists some results of a single study. Positions count from the first letter of the parent shown."}
{"data": "Series 1", "target": "ABI1, truncated, D143A, DHFR fusion (Arabidopsis thaliana)", "method": "DHFR PCA, deep sequencing", "medium": "yeast", "notes": "methotrexate growth selection, single substitutions", "together with": "(+)-ABA 58 µM", "relative to": "wild-type fitted maximum", "reading": "higher = stronger binding", "starting sequence": "PYL1, truncated, DHFR fusion (Arabidopsis thaliana); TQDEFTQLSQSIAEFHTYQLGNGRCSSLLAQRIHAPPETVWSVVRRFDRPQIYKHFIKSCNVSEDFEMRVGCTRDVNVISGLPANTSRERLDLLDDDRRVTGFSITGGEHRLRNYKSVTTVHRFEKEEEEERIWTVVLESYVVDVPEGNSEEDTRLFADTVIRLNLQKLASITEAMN"}
{"Substitution": "R32A", "relative binding score [%]": 81.6}
{"Substitution": "V143Y", "relative binding score [%]": -1.37}
{"Substitution": "N22T", "relative binding score [%]": 89.3}
{"Substitution": "F103V", "relative binding score [%]": 9.54}
{"Substitution": "T101P", "relative binding score [%]": -10.8}
{"Substitution": "G23K", "relative binding score [%]": 86.1}
{"Substitution": "A170C", "relative binding score [%]": 82.3}
{"Substitution": "R69L", "relative binding score [%]": 77}
{"Substitution": "V40Q", "relative binding score [%]": -6.48}
{"Substitution": "L28N", "relative binding score [%]": 14.6}
{"Substitution": "G21S", "relative binding score [%]": 88.8}
{"Substitution": "I105S", "relative binding score [%]": 66.5}
{"Substitution": "E130K", "relative binding score [%]": 106}
{"Substitution": "T17L", "relative binding score [%]": 56.4}
{"Substitution": "I33E", "relative binding score [%]": -23}
{"Substitution": "I105W", "relative binding score [%]": -9.56}
{"Substitution": "T73L", "relative binding score [%]": 83.1}
{"Substitution": "E127Y", "relative binding score [%]": 91.7}
{"Substitution": "V136L", "relative binding score [%]": 85.9}
{"Substitution": "Y18V", "relative binding score [%]": 78}
{"Substitution": "L138Q", "relative binding score [%]": 32.4}
{"Substitution": "R74A", "relative binding score [%]": -3.81}
{"Substitution": "E129A", "relative binding score [%]": 98.7}
{"data": "Series 2", "target": "Histone acetyltransferase KAT6A, both winged helices, GST fusion (KAT6A, Homo sapiens, UniProt Q92794, residues 1-181)", "method": "protein binding microarray", "form": "double-stranded DNA, one strand shown", "medium": "in vitro", "tested at": "not given", "notes": "8-mer, flanks averaged, mean of 2 arrays, mostly near background", "relative to": "not given", "reading": "higher = stronger binding", "Residues (chain)": "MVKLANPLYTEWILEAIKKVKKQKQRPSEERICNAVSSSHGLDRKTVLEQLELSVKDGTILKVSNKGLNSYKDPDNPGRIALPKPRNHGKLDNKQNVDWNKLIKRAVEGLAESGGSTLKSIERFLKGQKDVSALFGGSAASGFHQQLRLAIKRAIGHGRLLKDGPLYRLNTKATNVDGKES"}
{"Oligonucleotide": "ATATATGC", "E-score": 0.00625}
{"Oligonucleotide": "CCAGACAC", "E-score": -0.242}
{"Oligonucleotide": "GGCAGTAC", "E-score": -0.0762}
{"Oligonucleotide": "AGGAAGGG", "E-score": -0.229}
{"Oligonucleotide": "AAGCCAAA", "E-score": -0.0987}
{"Oligonucleotide": "CAGTAAAC", "E-score": 0.0632}
{"Oligonucleotide": "ATGTATCA", "E-score": -0.122}
{"Oligonucleotide": "ATCTGCAT", "E-score": -0.144}
{"Oligonucleotide": "AGGGTTTC", "E-score": -0.0294}
{"Oligonucleotide": "TATGTACA", "E-score": -0.0617}
{"Oligonucleotide": "ATTTCGGC", "E-score": 0.122}
{"Oligonucleotide": "CGGGTGAC", "E-score": 0.243}
{"Oligonucleotide": "AGGTTCAG", "E-score": -0.205}
{"Oligonucleotide": "CCAGTCAC", "E-score": 0.0354}
{"Oligonucleotide": "CGATAAAG", "E-score": 0.0434}
{"Oligonucleotide": "AGATCCTG", "E-score": -0.128}
{"Oligonucleotide": "TAACAGGA", "E-score": -0.137}
{"data": "Series 3", "target": "Hepatocyte nuclear factor 3-alpha (Foxa1, Mus musculus, UniProt P35582, residues 1-468, full length assumed)", "method": "EMSA with sequencing", "form": "double-stranded DNA, one strand shown", "medium": "in vitro", "tested at": "10 and 20 nM", "notes": "whole designed probe, mean of two concentrations, ends assumed", "relative to": "negative control set to 0", "reading": "higher = stronger binding", "all sequences stand within": "GTGAGCGGTGCCCATTGATGGGGAAC … TTTCACTGGGATCGTGGGGAC", "chain of UniProt P35582 (whole entry, looked up)": "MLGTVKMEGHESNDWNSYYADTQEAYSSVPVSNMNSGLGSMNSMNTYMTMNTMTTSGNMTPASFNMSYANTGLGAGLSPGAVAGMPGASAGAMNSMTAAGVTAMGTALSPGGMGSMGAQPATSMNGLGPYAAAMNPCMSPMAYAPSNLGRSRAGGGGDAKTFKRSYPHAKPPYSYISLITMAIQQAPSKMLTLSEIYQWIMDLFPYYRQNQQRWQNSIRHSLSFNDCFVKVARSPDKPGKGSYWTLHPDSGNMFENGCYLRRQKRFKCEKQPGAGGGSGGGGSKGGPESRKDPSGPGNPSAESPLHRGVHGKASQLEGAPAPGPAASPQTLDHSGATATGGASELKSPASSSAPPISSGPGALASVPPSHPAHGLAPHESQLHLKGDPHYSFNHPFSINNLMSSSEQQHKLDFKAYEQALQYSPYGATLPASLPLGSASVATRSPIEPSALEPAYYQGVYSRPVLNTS"}
{"Oligonucleotide": "AAACTAAAGAGTATATTTTTAATGTGAAAGGTTATTTAATTTTGCCATATTAAAACAAATGAGGACCAGTGGTTTTATAATATCAATATATTTGTTTACATTGTAAGGGGTTATTTATAATAAAAGCAATTTTATATTACATGTTACTGTGTGTTTCTGTTTTCAGAAAAAAAATGAAAACTAAAAGAAAAAA", "normalised bound fraction [ratio]": 0.587}
{"Oligonucleotide": "TTTTAAAGATTATGTAGAATTTTTAATCGAGAGTTAATTTTGTCTGCAGCATAACTCCTCCTCAAGGCAAAATACTTCTTATGATCAGATCAGAGTAAACATCCAGTGCACACAAAGTAATTTAAAATGCAAATAGTTTGTTATTAAATACCAGTTATGCATCAGTAGGAAGGACATTGTGGGAGTTGTTTGG", "normalised bound fraction [ratio]": 0.295}
{"Oligonucleotide": "AGCAAGGCTTTAAAAGTGAGGTCTTTCAGTTTAGATGCAAAAAGGGTGGTTCTGTTGAGGTTTCGTAATTCAACCCAGCTATTTCACTACATAGTAAACACCTAGAATGAGGTAGCTGGAGTGCAAATCTAAATGGCTTGTGACAGTTAAGGAAGTACATAGGCAACAGTTACTGGTTTTCTTGATGCAGCTG", "normalised bound fraction [ratio]": -0.00376}
{"Oligonucleotide": "CCACCGCGCCTGGCCGAGAGCTCAGCGTTTTAAAACCTATAGTAGGCTGTTTTTTTCACGTCAATGTCAAATGTTTGTGTCTGTTTTTCAAAGGTAAATAAGAAGTCTGTTGTCTGTTGCAGTCTGAACTCTAGAGTGTAAGATCTGACATATCAAAGGCAAGAGTAAAAAGAGAAGGTGGTGCATGCATGTA", "normalised bound fraction [ratio]": 0.236}
{"Oligonucleotide": "CATTAGAGTCAAAGTTGTTAAGGGGAGCTAGTCATAGCTACCACGTGGCCAGGCATGTGGAACCAGACACCAGGCACACATCATGTAACATCATATTTACTTTAAATAATGCTGACAACCTAGTATGAATCATCACACTACTTGAGATATATAGAATAACATTATTACCCAGTAAGTATGTGAACATTCCGAT", "normalised bound fraction [ratio]": 0.304}
{"Oligonucleotide": "ATAAGGCAGGGCACGGCTCTTCTTCAGAAAATGCCTCTGGGCCCTGCTCATCTGGAACTTGTTTTGGTAACTTTAAGCTTAGTAGCTTTTTTTGTTTACTTAGTAATACATTTTCTTTAGAGAGAACACACACACTGGGTTTTCTTTAGAGAGGAACACACTCGCACTGGGGCTGGACATGAGTCACTACAGT", "normalised bound fraction [ratio]": 0.557}
{"Oligonucleotide": "ATCTTCCCCCTCTTCCTTGCCCCACCAGCTCACCTTCCCGGGTTATTTGCAGATAGGAAAATAAATAAAGCCGGCATTCGTTAACGCAGTTCACGCGCATACTGCTGTTTGCTCTGCATCTAACATGGTCCTTACGCGACGCCAGGCTCCGGGAGAGCAAAGCACCGTGTCAGGCGCATGATCCGGGCTCGCC", "normalised bound fraction [ratio]": 0.362}
{"Oligonucleotide": "GGTGCCTCCCCAGCCACCTCCGCCCCTGCCTGCTTCTGATTCAACAGCGCCGACCCTACAAAAACAGGGCCCGCCCATCTCCGAGGATGGCAAAGTCAACAGTGCGGGCACGCGGGCGGCCAGTCCCCGGCGGCCCGCGTGCGTCACGGGGGCGGATGCAGAGGACCAGGAAGTTCGCCGACGACGCGCCCGC", "normalised bound fraction [ratio]": 0.245}
{"data": "Series 4", "target": "CCND3, cyclin fold, Cln2 fusion (human)", "method": "yeast growth competition, sequencing", "medium": "yeast", "notes": "weak parent motif", "relative to": "not given", "reading": "higher = stronger binding", "starting sequence": "HASPIN docking peptide (human); ASLRSVLFGLMNS; partner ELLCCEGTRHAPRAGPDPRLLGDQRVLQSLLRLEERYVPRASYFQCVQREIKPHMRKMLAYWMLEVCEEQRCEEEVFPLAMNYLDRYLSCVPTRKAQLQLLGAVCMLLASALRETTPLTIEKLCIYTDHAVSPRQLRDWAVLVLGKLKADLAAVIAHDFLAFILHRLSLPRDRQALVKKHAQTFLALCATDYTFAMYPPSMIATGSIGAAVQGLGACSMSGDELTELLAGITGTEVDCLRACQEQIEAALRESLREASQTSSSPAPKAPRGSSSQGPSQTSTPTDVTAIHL"}
{"Substitution": "ASLRSVLFGLMNA [S13A]", "normalised enrichment score": -0.674}
{"Substitution": "ASLRSVLFALMNS [G9A]", "normalised enrichment score": -0.142}
{"Substitution": "ASLRSVAFGLMNS [L7A]", "normalised enrichment score": -0.11}
{"Substitution": "ASLRSVLFGLMAS [N12A]", "normalised enrichment score": 0.412}
{"Substitution": "ASLRSALFGLMNS [V6A]", "normalised enrichment score": -0.5}
{"Substitution": "ASARSVLFGLMNS [L3A]", "normalised enrichment score": -0.129}
{"data": "Series 5", "target": "UBE2H UBC core domain (UniProt P62256)", "method": "yeast two-hybrid", "medium": "yeast", "notes": "mostly zero background", "relative to": "not given", "reading": "higher = stronger interaction", "B1": "PRKN RING domain (UniProt O60260); chain LIATNSRNITCITCTDVRSPVLVFQCNSRHVICLDCFHLYCVTRLNDRQFVHDPQLGYSLPCVAGCPNSLIKELHH", "B2": "RNF24 RING domain (UniProt Q9Y225); chain KVKELNLHELCAVCLEDFKPRDELGICPCKHAFHRKCLIKWLEVRKVCPLCNMPVLQLAQLH", "B3": "Ltn1 RING domain (UniProt Q6A009); chain VDKRFEGVEDCMICFSVIHGFNYSLPKKACRTCKKKFHSACLYKWFTSSNKSTCPLCRETFF", "B4": "RNF181 RING domain (UniProt Q9P0P0); chain VIRGSQAELKCPVCLLEFEEEETAIEMPCHHLFHSSCILPWLSKTNSCPLCRYELPTDDDTY", "B5": "TRIM48 RING domain (UniProt Q8IWZ4); chain ISQVFQRELTCPICMNYFIDPVTIDCGHSFCRPCFYLNWQDIPILTQCFECIKTIQQRNLKT", "B6": "TRIM22 RING domain (UniProt Q8IYM9); chain KEVKMSPQEGQKRDVCEHHGKKLQIFCKEDGKVICWVCELSQEHQGHQTFRINEVVKECQEK", "B7": "RNF135 RING domain (UniProt Q8IUD6); chain PVWLAEDDLGCIICQGLLDWPATLPCGHSFCRHCLEALWGARDARRWACPTCRQGAAQQPHLR", "B8": "DTX1 RING domain (UniProt Q86Y01); chain QKVKNPPDEDCTICMERLVTASGYEGVLRHKGVRPELVGRLGRCGHMYHLLCLVAMYSNGNKDGSLQCPTCKAIYGEKTGTQ", "chain of UniProt P62256 (whole entry, looked up)": "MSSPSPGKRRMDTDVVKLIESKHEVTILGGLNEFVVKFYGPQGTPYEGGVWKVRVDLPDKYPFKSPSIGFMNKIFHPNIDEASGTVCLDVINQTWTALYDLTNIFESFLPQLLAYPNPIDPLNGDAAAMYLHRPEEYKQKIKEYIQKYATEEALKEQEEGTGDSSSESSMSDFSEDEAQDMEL"}
{"Molecule": "B1 (PRKN RING domain)", "lacZ reporter activity": 0}
{"Molecule": "B2 (RNF24 RING domain)", "lacZ reporter activity": 0}
{"Molecule": "B3 (Ltn1 RING domain)", "lacZ reporter activity": 0}
{"Molecule": "MDDQGCPRCKTTKYRNPSLKLMVNVCGHTLCESCVDLLFVRGAGNCPECGTPLRKSNFRV (MNAT1 RING domain (UniProt P51948))", "lacZ reporter activity": 0}
{"Molecule": "KLWDINAHITCRLCSGYLIDATTVTECLHTFCRSCLVKYLEENNTCPTCRIVIHQSHPLQ (PCGF3 RING domain (UniProt Q3KNV8))", "lacZ reporter activity": 0}
{"Molecule": "QLRRLQEERTCKVCLDRAVSIVFVPCGHLVCAECAPGLQLCPICRAPVRSRVRTF (BIRC7 RING domain (UniProt Q96CA5))", "lacZ reporter activity": 0}
{"Molecule": "B4 (RNF181 RING domain)", "lacZ reporter activity": 0}
{"Molecule": "B5 (TRIM48 RING domain)", "lacZ reporter activity": 0}
{"Molecule": "NTAPSLTVPECAICLQTCVHPVSLPCKHVFCYLCVKGASWLGKRCALCRQEIPEDFLDK (RNF146 RING domain (UniProt Q9NTX7))", "lacZ reporter activity": 0}
{"Molecule": "KITELNPHLMCVLCGGYFIDATTIIECLHSFCKTCIVRYLETSKYCPICDVQVHKTRPLL (BMI1 RING domain (UniProt P35226))", "lacZ reporter activity": 0}
{"Molecule": "ALDRLEKLLRCSRCTNILREPVCLGGCEHIFCSNCVSDCIGTGCPVCYTPAWIQDLKI (BARD1 RING domain (UniProt Q99728))", "lacZ reporter activity": 0}
{"Molecule": "KEQLEKHNDICAICYQDMKSAVITPCSHFFHAGCLKKWLYVQETCPLCHCHLKNSSQLP (RNF145 RING domain (UniProt Q96MT1))", "lacZ reporter activity": 0}
{"Molecule": "B6 (TRIM22 RING domain)", "lacZ reporter activity": 0}
{"Molecule": "B7 (RNF135 RING domain)", "lacZ reporter activity": 0}
{"Molecule": "B8 (DTX1 RING domain)", "lacZ reporter activity": 0}
